# Measured values gathered from unrelated publications.
# Every numbered part comes from another study and shows a few of its results, in no order.

# Series 1 — technique: RNAcompete; molecule type: RNA; sample: in vitro; concentration: 20 nM; notes: 7-mer, probes averaged, single round; reference: mean of 7-mers; direction: higher = stronger binding
# Target: PABPC1L2, full length, GST fusion (mouse, UniProt A0ABA7IW68)
# Target sequence (chain): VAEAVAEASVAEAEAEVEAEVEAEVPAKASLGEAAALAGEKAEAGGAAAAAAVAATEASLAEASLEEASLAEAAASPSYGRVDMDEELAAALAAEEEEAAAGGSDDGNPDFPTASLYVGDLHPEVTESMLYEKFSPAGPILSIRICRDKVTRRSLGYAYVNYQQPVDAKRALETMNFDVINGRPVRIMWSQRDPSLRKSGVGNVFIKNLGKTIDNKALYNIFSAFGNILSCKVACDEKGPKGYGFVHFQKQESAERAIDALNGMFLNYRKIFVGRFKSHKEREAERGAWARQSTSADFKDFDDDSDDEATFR
Sequence,7-mer Z-score
CUAAAGU,0.0823
AGACUCC,-0.307
CUGUAAC,-0.282
AUCCGCU,-0.289
UGGCCGC,-0.204
UUUCUAC,-0.313
CCCGUGU,-0.418
UUUUCCC,-0.452
UCUUUUU,-0.186
CAUUAAA,0.968
ACCGUAG,-0.315
GGGGUGG,0.253
ACAACUG,0.0968
UCCCACG,-0.219
CUUUGGU,-0.398
CGCGACA,-0.0409
AAGUUAU,0.253
ACCAAAG,0.321
UAUGGAA,0.204
GCUAAGG,0.0297
GGAAACA,0.948
UACUUUA,-0.0518
UCAUAAA,2.53
CCCUACU,-0.296
AAAUGUA,0.861

# Series 2 — technique: RNA Bind-n-Seq; molecule type: RNA; sample: in vitro; concentration: 100 nM; reference: input RNA pool; direction: higher = stronger binding
# Target: RING finger protein unkempt homolog, zinc fingers 1-6, SBP tag (UNK, Homo sapiens, UniProt Q9C0B0, residues 30-357)
# Sequence of UniProt Q9C0B0 (30-357, looked up): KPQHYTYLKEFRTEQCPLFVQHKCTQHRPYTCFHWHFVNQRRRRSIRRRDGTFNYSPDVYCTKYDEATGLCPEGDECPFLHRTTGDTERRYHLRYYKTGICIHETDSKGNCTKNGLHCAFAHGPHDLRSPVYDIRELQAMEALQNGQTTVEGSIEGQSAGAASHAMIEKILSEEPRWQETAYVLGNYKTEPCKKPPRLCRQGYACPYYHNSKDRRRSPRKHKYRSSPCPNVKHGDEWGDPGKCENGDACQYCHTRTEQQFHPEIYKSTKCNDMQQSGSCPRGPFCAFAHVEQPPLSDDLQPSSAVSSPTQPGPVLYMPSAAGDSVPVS
# Notes: RNA with constant flanks, vertebrate orthologous sites, ends assumed
# Shared flanks, not repeated: GGGAGUUCUACAGUCCGACGAUC … CAACAGAGGAUUGAGCAUCA
Sequence,bound/input enrichment [ratio]
GCACUCGCUGUGCAAAUUUCACAACACUGAAUGCAAAGCAGUACUUUUCCUAGUCACAGUAAGGUAGCUGUAGGGCUGUACCGCCAUGGGGUUACUCAUGUGCCGGUUUUGAAAGUGUAC,0.223
AUUCAAACCUGUGGUGCCAUGGCCUCAUGUGGAAGGAGUAGAAGUGGAUUUAGAGUCUAUUAGAAGAAAAAACAAGGCCAAAAAAGAACAGGAGCACCAUGCUGGAGGAGAUUCCCAAAA,0.507
CCCAAGCACUGUAGAGGAAGCUGUGCUCGCCUUAGAGCAUUUUUUUCUUGUUUUUGGUUUUAGGGGUGGGUGGGUUGUUGCACACACCUCUGAGGCCAGAGCUGUCGGGUUCACCUUGUA,0.386
CUGCUGUAUGGGCCCCGCAGAGUUGAGGUCAUGGAAGAGGAAAGUGAACAGUAAUCUCUGUAGUAUUUAUGCUUAGGUGUGAAAUAAAUGUUAUUUGUUGAUCACUUGUAUAAUCCAGAG,0.295
CGUAGAAUAUUGGGUGCAGCAUAUAAAUUAUCCAAGGCAGUGACUUCAGCUUUAUAGAGAUUGUUAGUUUUAAAGUCACCUACUUUUAUUUCAACUUCUAGAUUGGAUUGUUUGCUAUUG,1.2
GCAGAAAAGGGGUUAGCAUCUUUAUUUUUAUAUCAAAGAUAAAGGUUAUUUUAAAAUUAUUAGGAUUUCUAUGCAACUUGAAACUCUCUGUUGCUUUUAUAAGCAAAUUAUGUUGGGUCU,2.08
GGGUUCGGGGUAGAGGGAGGGAAGGGGACAGGACAGUGUGGAAUCUCUAGGGUGUAUGGAUAGUUAGGGGAUACAGUUAGUUCUAUGUGGGCCUUUAUGUUAAAACCACUGGGAGUGUCU,0.992
AUUUAGAAUGUUAAUAAAUUGCUCUGAGUUUCCUCAAGUCCAUUUUGUAAGAUCAGGCCAUAGGAGGGUGUUGUUUCUUUUAAGUUUGUGUACUGUGUCCAAUGUUACAUUUUUAGAAGU,2.72

# Series 3 — technique: protein binding microarray; molecule type: double-stranded DNA, one strand shown; sample: in vitro; concentration: not given; reference: not given; direction: higher = stronger binding
# Target: Histone acetyltransferase KAT6A, both winged helices, GST fusion (KAT6A, Homo sapiens, UniProt Q92794, residues 1-181)
# Notes: 8-mer, flanks averaged, mean of 2 arrays, mostly near background
# Residues (chain): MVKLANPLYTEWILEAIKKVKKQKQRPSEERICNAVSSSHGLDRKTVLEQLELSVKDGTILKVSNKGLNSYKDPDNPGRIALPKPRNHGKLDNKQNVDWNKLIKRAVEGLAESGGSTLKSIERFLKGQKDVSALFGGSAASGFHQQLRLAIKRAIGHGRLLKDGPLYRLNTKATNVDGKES
Sequence,E-score
ATTCCCTG,-0.197
CAAGCCTC,-0.257
CCTGCATC,-0.0893
GGGACCAA,-0.124
ATATGACG,0.0623
AAAACCTT,-0.12
AGACGTAA,-0.234
GGTCTAAC,-0.0321
CAAGCTGC,-0.0521
ATGTGGCC,-0.0835
ACCGTTCA,0.0655
AAATCCGC,0.243
GAATGCTA,-0.0118
CGCAGTAG,0.122
AGCGTCGG,0.345
ATCCCCTG,-0.259
GAGCGAGC,0.00238
CCGTTGAA,0.169
GCGCGAGC,0.276
GGTTTACA,0.0338
GACCCTCA,-0.243

# Series 4 — technique: RNA Bind-n-Seq; molecule type: RNA; sample: in vitro; concentration: 365 nM; reference: no-protein control; direction: higher = stronger binding
# Target: RNA binding protein fox-1 homolog 2, RRM domain, GST-SBP tag (RBFOX2, Homo sapiens, UniProt O43251-10, residues 100-194)
# Notes: natural RNA segment, single round, ends assumed
# Shared flanks, not repeated: GGGAGUUCUACAGUCCGACGAUC … UGGAAUUCUCGGGUGCCAA
# Target sequence (chain): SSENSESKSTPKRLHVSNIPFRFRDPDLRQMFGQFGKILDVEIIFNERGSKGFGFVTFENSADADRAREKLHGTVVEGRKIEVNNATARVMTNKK
Sequence,RBNS enrichment (R)
UGCAUGGGGUGCUAGGGUUUAAACCAAGUGGUCACGAAGGAUUCUUAUCUCAGGGCUCUGCCUGGCCCACCUUCUCUUGGGCCUGGACUCUCCUUAUCCACAUCCCUGCA,6.15
CCAACCAAACAAACAAAAAAACAAAGCUAAAAUGACAGCAACCAAAAGUAAUUUGCUUAUUCAGUGGGCAUGUAAAGAGUCUGGCCACCAUGUCCCCUCUGCACCGUGAC,1.85
GGGCUCGUUGCACUUUAAGAAAUAGGAUCUGUGGUGUAUUCCAGGGGGCCUGAUGGACACCUUUCCCGGGCGUCUGCAGCUGCCCUGCCCGUGCCCGCCUGCAGUGGUUG,0.347
CAGCGAAAUUCUUGUUCAGGCUGGGUCUGUCGACUUUGACUCUGCUAUUUAUAGAGCCAAUGUGGGUUAAUAACUACUAUUUAUUGAGUGCCCGUUCCAUGCCAAGCAUU,0.577
UUCCAAAGAAAACUACCACAUCUUGACAUUUCAUCCUUUUCUGAGUCCAAGGCCAAGAACCUCAUCAAGGAGGCAGGCAACGAGUUUGUACAGCACAAUGCCAGACAGUU,0.523
AGCUCAACUACACAAUAUAAGGCAGACCAACCAAUACAUGCCUGUCAUUCACGUGUCCUUUCAUGUGCUUGCUUUAGGGAAACAGUCCUUCACAAGUCUGCCUUUCACCU,0.336
AAUGUUGCUUUCUCUUCUAGUCUCGGGUAUGUUUAAAUGAUUCCCUUUUCUCACUCUAGCGCCAAUACUGGCCUGAAGGCUAGAUCCCCAGCGAAAUUCUUGUUCAGGCU,0.302
CAUCUCAGCCAGCAGAUCUGCUCCCUUCUGGGACCCAGGCUUCAGUGUCACACGGUCCUUGGCUAUGUAUUGGGCGUUGGAGGCUUUGAAAGGCGAGCAGAAGCAGCAUG,3.65

# A few entries again (series 3):
Sequence,E-score
ATATGACG,0.0623
AAAACCTT,-0.12
AGACGTAA,-0.234
GGTCTAAC,-0.0321
CAAGCTGC,-0.0521
ATGTGGCC,-0.0835
ACCGTTCA,0.0655
